# Published values collected from several papers.
# ± marks the error that the study gave.
# CSNK2A1: Casein kinase II subunit alpha (CSNK2A1, Homo sapiens, UniProt P68400)
Compound,target,assay,conditions,scale,measurement,value
COc1ccc(O)cc1-c1c[nH]c2ncc(-c3cncc(C(=O)N(C)C)c3)cc12,"Casein kinase II subunit alpha, with CK2 beta (CSNK2A1, Homo sapiens, UniProt P68400)",KINOMEscan,0.2 µM,,inhibition,-1.06 ± 1.45%
CN1CC[C@@H](COc2cnc(C#N)cc2-c2ccn3nc(NC(=O)C4CC4)cc3c2)C1,CSNK2A1,kinase activity,"1 µM, ATP10",,inhibition,10%
Nc1nc(Nc2ccccc2)sc1C(=O)c1ccccc1,CSNK2A1,"enzyme activity, inhibitor",10 µM,,remaining activity,107%
C=CC(=O)N1CCCC(n2c(=O)c3ncccc3n(Cc3ccc(Oc4ccccc4)cc3)c2=O)C1 (stereo not shown),CSNK2A1,"cell-free assay, competition with immobilised ligand",1 µM,,remaining binding,65%
COc1c(Cl)cccc1Nc1c(-c2ccncc2C#C[C@@]2(C)CCCN2C(=O)/C=C/CN(C)C)[nH]c2c1C(=O)NCC2,CSNK2A1,"cell-free assay, competition with immobilised ligand",3 µM,,remaining binding,75%
Cc1cccc(-c2ccc3nc(NC(=O)C4CCCCC4)nn3c2)c1,CSNK2A1,"enzyme activity, Dundee kinase panel",10 µM,,remaining activity,106%
CNC(=O)C1CCN(c2cc(C)c(F)cc2NC(=O)c2ccc(-c3cc(O)ccc3C)c(C)c2)CC1,CSNK2A1,"binding, competition with immobilised ligand",1 µM,,remaining binding,95%
NC(=O)[C@@H](O)C[C@H]1CCc2sc3ncnc(O[C@H]4CC[C@H](N5CCOCC5)CC4)c3c21,CSNK2A1,"enzyme activity, inhibitor",10 µM,,inhibition,18%
CNC1C[S+]2CC[S+]3CC[S+](C1)[Ru-4]321([N]=C=S)[n]2c3ccc(OC)cc3c3c4c(c5cc(F)c[n+]1c5c32)C(=O)NC4=O (stereo not shown),CSNK2A1,KinomeScan,0.1 µM,baseline: untreated,remaining binding,97%
CCN1CCN(Cc2ccc(C(=O)Nc3ccc(C)c(NCc4cnc5[nH]ccc5c4OC)c3)cc2C(F)(F)F)CC1,CSNK2A1,"binding, competition with immobilised ligand",1 µM,,remaining binding,31%
Cc1cccc(-c2ccc3nc(NC(=O)C4CCCO4)nn3c2)c1 (stereo not shown),CSNK2A1,"enzyme activity, Dundee kinase panel",10 µM,,remaining activity,101%
CCn1cc(C(=O)O)c(=O)c2c(N)c(F)c(NC3CCCCC3)cc21,CSNK2A1,kinase activity,"0.1 µM, added: ATP at Km",,inhibition,-10.6%
Cc1ccc(-c2c(/C=C(\C#N)C(=O)NC(C)C)n(CCCO)c3ncnc(N)c23)cc1,CSNK2A1,"cell-free assay, competition with immobilised ligand",1 µM,,remaining binding,100%
c1ccc2c(Nc3cc(C4CCC4)[nH]n3)nc(Nc3ccc4nc[nH]c4c3)nc2c1,CSNK2A1,"enzyme activity, inhibitor",0.25 µM,,remaining activity,91%
COc1cc(Nc2nccc(-c3cnn4nc(OC)ccc34)n2)cc(C(F)(F)F)c1,CSNK2A1,"binding, competition with immobilised ligand",1 µM,,remaining binding,85%
Cc1cnc2nc1Nc1cccc(c1)COC/C=C/COCc1cc(ccc1OCCN1CCOCC1)N2,CSNK2A1,binding,0.1 µM,,remaining binding,30%

# Repeated from above:
Compound,target,assay,conditions,scale,measurement,value
Cc1ccc(-c2c(/C=C(\C#N)C(=O)NC(C)C)n(CCCO)c3ncnc(N)c23)cc1,CSNK2A1,"cell-free assay, competition with immobilised ligand",1 µM,,remaining binding,100%
c1ccc2c(Nc3cc(C4CCC4)[nH]n3)nc(Nc3ccc4nc[nH]c4c3)nc2c1,CSNK2A1,"enzyme activity, inhibitor",0.25 µM,,remaining activity,91%
